Measured values of several laboratories.
Every numbered part comes from another study and shows a few of its results, in no order.

Set 1
Target: Probable WRKY transcription factor 50, DNA-binding domain (WRKY50, Arabidopsis thaliana, UniProt Q8VWQ5, residues 99-173)
Method: DNA-protein interaction ELISA
Molecule type: double-stranded DNA, one strand shown
Sample: in vitro, bacterial lysate
Concentration: not given
Setting: whole dsDNA probe, crude lysate protein
Baseline: highest signal in screen
Reading: higher = stronger binding
Measurement: relative absorbance
Target sequence (chain): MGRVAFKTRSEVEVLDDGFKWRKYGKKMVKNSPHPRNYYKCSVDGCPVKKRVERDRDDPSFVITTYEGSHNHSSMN
AAAAAACATGTCGCACCTGTACTAACAAAA: 39.4 % of maximum
AAAAAACTGACCGTCAGCGCCCACGCAAAA: 40.7 % of maximum
AAAAAATCCGTTCCCATTTGTCCGTCAAAA: 27.4 % of maximum
AAAAAAAGGGTCCGGTGCATACATGTAAAA: 45.4 % of maximum
AAAAAAGTGTGTGGCTCAGGATTCCCAAAA: 28.5 % of maximum
AAAAAATGGTCGATCCGCATGCAGTTAAAA: 20.3 % of maximum
AAAAAATAAATCGCGGCTACTGCTTCAAAA: 23.5 % of maximum
AAAAAAGCGCGCCCGCACTGTTAATAAAAA: 12.1 % of maximum
AAAAAATTCGTTTTTCGTCTTTCATTAAAA: 37.5 % of maximum
AAAAAAGCTGTCACTGTAGTCGGTCCAAAA: 22.3 % of maximum
AAAAAATAGTGTGATTGGTATCCAGTAAAA: 20.1 % of maximum
AAAAAAACACCTGTATAGCATGGACGAAAA: 30 % of maximum
AAAAAACGGTCGCGATCGTTAATGATAAAA: 19.8 % of maximum
AAAAAAAGTGGCCGCTAGTCAACTCAAAAA: 40 % of maximum
AAAAAATGGCTCGGGTTCCAAGGTTGAAAA: 22.6 % of maximum
AAAAAAGCCTTTACCCTTGTTCCTCTAAAA: 14.8 % of maximum
AAAAAAATGATTTGCAGATCTCCGAGAAAA: 32.7 % of maximum
AAAAAACTGGCGACTGCCAGTGGTAGAAAA: 18.9 % of maximum
AAAAAATCCATGTTTAAGCTGGTCTCAAAA: 33.9 % of maximum

Set 2
Target: Interferon regulatory factor 7, full length, phosphomimetic (IRF7, Homo sapiens, UniProt Q92985, residues 1-503, S101K/S471D/S472D/S475D/S476D/S477D/S483D/S484D/S487D)
Method: protein-binding microarray
Molecule type: double-stranded DNA, one strand shown
Sample: in vitro
Concentration: 250 nM
Setting: 60-bp whole probe
Added: salmon DNA 0.4 mg/ml
Baseline: random background probes
Reading: higher = stronger binding
Measurement: log fluorescence
Constant ends, left off below: GCCTAGCAC … GTCTTGATTCGCTTGACGCTGCTG
Target sequence (chain): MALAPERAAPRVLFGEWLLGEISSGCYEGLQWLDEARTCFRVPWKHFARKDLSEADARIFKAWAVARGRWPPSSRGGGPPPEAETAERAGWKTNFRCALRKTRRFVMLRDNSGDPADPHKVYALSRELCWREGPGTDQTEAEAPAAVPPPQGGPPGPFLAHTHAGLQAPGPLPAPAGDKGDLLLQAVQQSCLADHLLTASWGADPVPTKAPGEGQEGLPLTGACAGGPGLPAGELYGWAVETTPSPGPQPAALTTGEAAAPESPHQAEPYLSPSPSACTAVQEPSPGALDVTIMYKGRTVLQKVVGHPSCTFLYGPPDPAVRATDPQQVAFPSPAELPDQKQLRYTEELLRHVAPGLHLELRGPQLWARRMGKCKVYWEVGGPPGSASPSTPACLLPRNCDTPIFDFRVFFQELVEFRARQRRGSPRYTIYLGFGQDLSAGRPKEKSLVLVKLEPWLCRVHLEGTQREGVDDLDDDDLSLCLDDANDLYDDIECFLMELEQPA
GCCATTTTCCCTCCCTAATTGTGCTAG: 1.71 z-score
TCATATATACACTTATGACTGTGCTAG: 0.546 z-score
TTAGATTTCGGGTATCGATTCGTGCTA: 3.35 z-score
TTAGAACTGGGGACTGGATTGGTGCTA: -0.227 z-score
TTAGGTATTCTTCTCCTTTAGTGCTAG: 0.205 z-score
GACGGTTTGGGTTCCGGGACGTGCTAG: 0.545 z-score
TCAACTCTCTACATGGGACTGTGCTAG: 0.479 z-score
TTAGAACTGTGTTTCGATTAGTGCTAG: 3.51 z-score
TTAGGTATCGAAACTGGGTTAGTGCTA: 1.68 z-score
GACGGTTTCGACTATCGGGAGGTGCTA: 5.79 z-score
TCACCTCACAGTTTGTAACTGTGCTAG: 0.0571 z-score
TCAGATATCGGGTATCGATTAGTGCTA: 0.647 z-score
GAATATATGTATATATGTGTGTGCTAG: 0.0561 z-score
TTAGGTTTCGTTATCGGTTAGTGCTAG: 11.4 z-score
TTAGATATCAGTATCGCTTAGTGCTAG: 0.26 z-score
TTAGGTATCAGTTTCGATTAGTGCTAG: 9.07 z-score
TTAGGTTTCGACTATCGGTGAGTGCTA: 5.36 z-score

Set 3
Target: Sal-like protein 4, full length isoform B (SALL4, Homo sapiens, UniProt Q9UJQ4-2, residues 1-616)
Method: universal PBM
Molecule type: double-stranded DNA, one strand shown
Sample: in vitro
Concentration: not given
Setting: 8-mer, flanks averaged, mean of replicates
Reading: higher = stronger binding
Measurement: E-score
ACTCTCCG: -0.109
ATTGACTG: 0.035
CAACATCG: 0.0786
AAACTGCT: -0.0203
AGTTGCAG: -0.0878
TTAAGGAA: 0.135
TATGAACA: 0.353
CGACTGTC: -0.225
AAACAAGT: 0.164
CCCGAGCC: -0.286
GCCGTTAC: -0.159
CACAACCG: -0.0745
CATCGTGC: -0.0602
CTATCTGA: -0.0289
ATAACCCG: 0.0272
AGTACGAA: 0.123
CCGGGGTC: -0.388
GCGGTATA: 0.179
ACAATTGC: 0.166
CATAGCAC: 0.127

Set 4
Target: RNA binding protein fox-1 homolog 2, RRM domain, GST-SBP tag (RBFOX2, Homo sapiens, UniProt O43251-10, residues 100-194)
Method: RNA Bind-n-Seq
Molecule type: RNA
Sample: in vitro
Concentration: 365 nM
Setting: natural RNA segment, single round, ends assumed
Baseline: no-protein control
Reading: higher = stronger binding
Measurement: RBNS enrichment (R)
Constant ends, left off below: GGGAGUUCUACAGUCCGACGAUC … UGGAAUUCUCGGGUGCCAA
Target sequence (chain): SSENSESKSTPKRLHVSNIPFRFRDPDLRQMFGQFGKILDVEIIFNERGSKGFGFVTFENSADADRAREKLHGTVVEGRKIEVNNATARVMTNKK
GGGGGUUGGGUAUCACAGUGUAGCUCAUGACUUUGUUCCCUCACCCCACCCCCAAUCCAAAAGGUUCAGAGUCCCCCGAGAUGACACUUCCUCCAGCAUAACCCCAGUUG: 2.4
AAAAAAAAAAAAAAAAGAGUUUCUGGCUGAUGGGUGACUCAGAGUGCAGGACUGCCUGGCCGUGGGGCAGAGGGGUUUGCCCUUCUCGGAGGGUACCUCCUGUUCCCUGU: 0.443
ACACAGCCUCAGUACCCAGUCUUUUCCCUAGUUCCUGAAACUUUCCUAGGACCUUAAGAGAAUAGUAGGAGGUCCUAUAGCAUUCCCAGUGUCACUAGAAUUUUGAAGAC: 0.755
AGUGUUAAAGCACUUAAUCCAAAUUAGCCCAUCUUUAACUGUUUUGAAAAAUCUAUAUUUAUUAAAGGUAGUAGACAUUUGAAUAUAGUAAUCAAAUUAACUGAUUUUGU: 0.822
GGUCCUCUGGAGAACUCUUCGUGAGCACUGGUGCCGUGACCCACUUGGGAUCUCUGCUGUGCCCUUCUCGGGCUUCCAGACCAGGUGUAGCAAAUGAAAAAGUGCAGUUA: 0.229
AAUAGGACUUCCUUUGAAAGCUGUAUAAUAGUGUUUCUCGGGCUUCUGUCUCUAUGAGAGAUAGCUUAUUACUCUGAUACUCUUUAAUCUUUUACAAAGGCAAGUUGCCA: 0.466
AUGAAAACCCAACCUACAAAUACCUGGAGCAGAUGCAGAUUUAAGGACAGCGUGUGUGACACCCUGGCUGAGGCUGCUGCAGGUGGGCUGGAAGAGGCUCAGCGUUUGUG: 0.419
GCUAGUUCUCCUUCUUCUGUCUCCUCCUUACCCUGGCCCUGCACCCCUGUACUUAAGAGGGAGAGGUGGGAGGUGCUGUCUGGUAUCAUUUGCUGCCUCGCCAGUAGAGG: 0.64
AAGCCACCAGCUAUUUCCUGGUGACACAAGCUCUUCUCAGGCGGGGCUGCCUGCAGGCUCCCGUUUUCUGAGCCCACGCUGCCCACAGCUGACCCCAGCGCAGCCCCGGG: 0.207
AUUACGUGUUGAAUAUUUUGAGUAAGAAGAAAAGAAUCCAUCUUCAGAAUAUAGGGUUGUUCUUUGGGAAAAAGAGUAUAAGAACAUAAUUUCUUUGUCCUAGACUUUAC: 0.534
ACUAGCCUAAACAUUCUCAAAUGUUUGAGAUUCAAGUGAAUGGAAGGAAAACCACAUGCCUUUAAAACUAAACUGUAAUAAUUACCUGGCUAAUUUCAGCUAAGCCUUCA: 0.524
UUAUUCCUAAACACAGUUACAGACACGCAGUCGAGAUCUUUCUUGAUGCUUGGGAUCUCAAGACUGUCUGCCUUCCUGCCUGCUCCUCAGGCCUGAGAGAGGAGCUGCUC: 1.03

Set 5
Target: Prothrombin, mature alpha-thrombin (F2, Homo sapiens, UniProt P00734)
Method: aptamer microarray, sandwich
Molecule type: DNA with 2'F-ANA
Sample: in vitro
Concentration: 200 nM
Setting: whole 15-mer aptamer, many near background
Added: Cy3 exosite-II aptamer, 400 nM
Reading: higher = stronger binding
Measurement: mean fluorescence intensity
Strand: GGTTGGTGTGGTTGG
2'F-ANA at 2 4 5 6 7 8 9 11 12 14 15: 96.8 a.u.
2'F-ANA at 2 7 8 9 13 15: 368 a.u.
2'F-ANA at 6 7 10 11 14: 106 a.u.
2'F-ANA at 3 5 6 8 14 15: 87.3 a.u.
2'F-ANA at 1 9 10 11 13 14 15: 49.1 a.u.
2'F-ANA at 1 5 10 12 13 14: 45.6 a.u.
2'F-ANA at 1 2 4 6 7 12 13 14 15: 63.6 a.u.
2'F-ANA at 1 9 11 12 13: 256 a.u.
2'F-ANA at 2 3 4 5 6 8 9 11 14 15: 52.9 a.u.
2'F-ANA at 6 9 11 12 15: 577 a.u.
2'F-ANA at 2 4 6 7 8 9 13 15: 189 a.u.
2'F-ANA at 3 4 5 9 10 12 14 15: 49.2 a.u.
2'F-ANA at 1 2 3 5 6 11: 54.8 a.u.
2'F-ANA at 2 4 6 11 13 14: 76.9 a.u.
2'F-ANA at 1 2 4 5 6 7 9 10 11 12 13 14 15: 64.2 a.u.
2'F-ANA at 1 2 5 7 8 15: 76.7 a.u.
2'F-ANA at 1 2 3 4 6 7 10 11: 67.8 a.u.
2'F-ANA at 1 2 3 7 9 12 13 15: 326 a.u.
2'F-ANA at 1 4 6 7 8 9 11 12 13 14: 54.9 a.u.
2'F-ANA at 2 5 7 8 10 14 15: 46.6 a.u.
2'F-ANA at 1 3 4 6 8 9 10 11 13: 55.4 a.u.
2'F-ANA at 2 4 6 8 10 12 14: 61.1 a.u.
2'F-ANA at 4 5 6 9 12 13: 88.9 a.u.
2'F-ANA at 3 4 5 8 10 12 14: 49.6 a.u.
2'F-ANA at 1 2 3 5 8 11 15: 57.7 a.u.
